# Measurements gathered from unrelated publications.
# Each line is one published result; not all experiments were run side by side.
# Target: Serine/threonine-protein kinase ULK2 (ULK2, Homo sapiens, UniProt Q8IYT8)
Structure (SMILES),assay,test system,setting,scale,endpoint,result
CN1CCN(Cc2ccc(NC(=O)c3cccc(C#Cc4cnc(N)c5ncccc45)c3)cc2C(F)(F)F)CC1,"cell-free assay, competition with immobilised ligand",,50 nM,,remaining binding,80%
COc1cc(Nc2nc(C)cc(-c3cnn4nc(OC)ccc34)n2)cc(C(F)(F)F)c1,"binding, competition with immobilised ligand",,1 µM,,remaining binding,92%
C=CC(=O)N1CCc2ccc(-n3c(=O)ccc4cnc5ccc(-c6cnn(C)c6)cc5c43)cc21,KINOMEscan,,1 µM,relative to: DMSO control,remaining binding,100%
Cc1cnc2nc1Nc1cccc(c1)COC/C=C/COCc1cc(ccc1OCCN1CCOCC1)N2,"binding, competition with immobilised ligand",,0.1 µM,,remaining binding,100%
CN1CC[C@@H](COc2cnc(C#N)cc2-c2ccn3nc(NC(=O)C4CC4)cc3c2)C1,"enzyme activity, inhibitor",,1 µM,,inhibition,8%
COc1ccc(NC(=O)Nc2ccc3c(c2)C(=O)N(C(C)CO)CC(C)C(CN(C)Cc2ccc4c(c2)OCO4)O3)cc1 (stereo not drawn),"kinase activity, KinaseProfiler",,"0.03 µM, species human",relative to: control,remaining activity,96%
CCN1CCN(Cc2ccc(C(=O)Nc3ccc(C)c(NCc4cnc5[nH]ccc5c4OC)c3)cc2C(F)(F)F)CC1,"binding, competition with immobilised ligand",,1 µM,,remaining binding,81%
CNS(=O)(=O)Nc1nccc(Cc2c(C)c3ccc(Oc4ncccc4F)cc3oc2=O)c1F,"binding, competition with immobilised ligand",,10 µM,,remaining binding,92%
CCN1CCN(Cc2ccc(NC(=O)c3ccc(C)c(NC(=O)c4cncc(-c5cnn(C)c5)c4)c3)cc2C(F)(F)F)CC1,"binding, competition with immobilised ligand",,1 µM,,remaining binding,100%
Nc1ncc(-c2cc(-c3cnn(CC(F)(F)F)c3)ncc2F)nc1C(=O)NC1CNCC(F)C1 (stereo not drawn),enzyme activity,,1 µM,relative to: DMSO control,remaining activity,80.5%
NC(=O)C[C@H]1CCc2sc3ncnc(O[C@H]4CC[C@H](N5CCOCC5)CC4)c3c21,"enzyme activity, inhibitor",,10 µM,,inhibition,1%
CC(C)C(Nc1nccnc1-c1ccccc1)C(=O)NCC1CC1 (stereo not drawn),"cell-free assay, competition with immobilised ligand",,10 µM,,remaining binding,0%
CNC1C[S+]2CC[S+]3CC[S+](C1)[Ru-4]321([N]=C=S)[n]2c3ccc(OC)cc3c3c4c(c5cc(F)c[n+]1c5c32)C(=O)NC4=O (stereo not drawn),KinomeScan,,0.1 µM,relative to: untreated,remaining binding,96%
CCn1cc(C(=O)O)c(=O)c2c(N)c(F)c(NC3CCCCC3)cc21,kinase activity,,"0.1 µM, together with: ATP at Km",,inhibition,-5.5%
Cc1ccc(C(=O)Nc2ccc(CN3CCN(C)CC3)c(C(F)(F)F)c2)cc1C#Cc1cnc2cccnn12,"target engagement, NanoBRET",human cells,,,Hill slope,0.0381
Nc1ncc2c(n1)-c1c([nH]c3ccc(C4=CCOCC4)cc13)CCC2,"binding, competition with immobilised ligand",,1 µM,,remaining binding,70%
COc1ccc(O)cc1-c1c[nH]c2ncc(-c3cncc(C(=O)N(C)C)c3)cc12,"binding, competition with immobilised ligand",,0.2 µM,,inhibition,8.85%
C=CC(=O)N1Cc2nc(-c3cc(-c4cc(Cl)cnc4Cl)c(F)cc3F)n(-c3ccncn3)c2C1,"cell-free assay, inhibitor",,1 µM,,inhibition,0.7%
